Results gathered from unrelated publications.
Compare with care: the assays were run in different laboratories.
Target: Alpha-glucosidase MAL12 (MAL12, Saccharomyces cerevisiae S288c, UniProt P53341)
Chain of UniProt P53341 (whole entry, looked up): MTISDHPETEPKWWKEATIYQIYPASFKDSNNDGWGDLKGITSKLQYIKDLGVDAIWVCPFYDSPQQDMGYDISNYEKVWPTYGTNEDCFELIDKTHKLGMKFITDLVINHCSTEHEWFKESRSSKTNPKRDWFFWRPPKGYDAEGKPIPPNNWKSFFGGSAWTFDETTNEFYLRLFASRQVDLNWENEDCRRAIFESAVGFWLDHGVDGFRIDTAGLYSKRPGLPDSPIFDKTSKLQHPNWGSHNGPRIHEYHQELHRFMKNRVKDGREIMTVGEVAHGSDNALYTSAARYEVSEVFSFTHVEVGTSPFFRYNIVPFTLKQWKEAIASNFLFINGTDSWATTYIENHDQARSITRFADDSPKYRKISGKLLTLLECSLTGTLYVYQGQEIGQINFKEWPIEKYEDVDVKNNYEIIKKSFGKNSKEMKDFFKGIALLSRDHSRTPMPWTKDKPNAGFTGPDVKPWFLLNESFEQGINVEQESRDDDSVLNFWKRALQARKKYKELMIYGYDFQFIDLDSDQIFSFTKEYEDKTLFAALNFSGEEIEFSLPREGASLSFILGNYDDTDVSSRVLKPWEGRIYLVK

Structure (SMILES)	test	setting	quantity	result
O=C1C(=O)N(CCOc2ccc(F)cc2)c2ccc(Br)cc21	enzyme activity, inhibitor	500 µM, pH 6.8	inhibition	91.7%
CN(C)c1ccc(C(=N/N=C/c2c(O)ccc3ccccc23)c2ccc(N(C)C)cc2)cc1	enzyme activity, inhibitor	concentration not given, pH 6.8, 37 °C, added: p-nitrophenyl alpha-D-glucopyranoside	activity	inactive
O=C(/C=C/c1ccc(O)c2oc(-c3ccc(O)c(O)c3)cc12)O[C@H](Cc1ccc(O)c(O)c1)C(=O)O	inhibitor		Ki ratio, uncompetitive over competitive	6 fold
O=C1C(=O)N(CCOc2ccc(Cl)cc2)c2ccccc21	enzyme activity, inhibitor	500 µM, pH 6.8	inhibition	91.2%
COc1cc(O)c2c(=O)c(OC)c(-c3ccc(O)c(O)c3)oc2c1	enzyme activity, inhibitor, absorbance	25 µM	inhibition	14.2%
Cc1cccc(/C=C/C(=O)c2cnn(-c3ccccc3)c2C)c1	enzyme activity, inhibitor	500 µM	inhibition	71.1%
COc1c(-c2cccc(O)c2)oc2c(OC)c(O)cc(O)c2c1=O	enzyme activity, inhibitor, absorbance	25 µM	inhibition	92.2%
O=C1OCC(Cc2ccccc2)C1c1ccccc1 (stereo not shown)	enzyme activity	added: p-nitrophenyl glucoside	Vmax	1.45 mM/min
COc1cc(-c2oc3cc(O)cc(O)c3c(=O)c2OC)ccc1O	enzyme activity, inhibitor, absorbance	10 µM	inhibition	43.1%
O=C1C(=O)N(CCOc2ccc(Cl)cc2)c2ccc(Br)cc21	enzyme activity, inhibitor	500 µM, pH 6.8	inhibition	93.6%
